Literature values that unrelated publications cite.
Compare with care: the assays were run in different laboratories. pEC50, pIC50: −log10 of the molar value.
B1: CCL1; sequence looked up; chain KSMQVPFSRCCFSFAEQEIPLRAILCYRNTSSICSNEGLIFKLKRGKEACALDTVGWVQRHRKMLRHCPSKRK

Under “time to return to baseline”, `human hepcidin` is recorded as no more than 48 h (item: serum iron; healthy human, serum; subcutaneous, dose not given).
`pentagastrin` has a gastric pH of 1 to 2 (dog; dose not given).
The pEC50 of `B1 (CCL1)` is reported as less than 6.00 (CCR8 S110H mutant; IP accumulation, agonist).
With `MGIGKFQKMRFIGAIRASKGVAKGLLRIAAIRTGRRALTT` the MIC was 10.4 µM (Escherichia coli; peptide).
Under “body weight reduction”, `retatrutide` is recorded as 17.5% (human, obese adults; 12 mg, 24 weeks, trial).
`bevacizumab` — result for “median duration of response”: 5.3 months (patients with recurrent glioblastoma; dose not given, CheckMate-143 trial).
`indirubin-3'-monoxime` has a pIC50 of less than 4.52 (vasculogenesis; zebrafish embryos).
`brentuximab vedotin`: “overall response rate” 86% (relapsed/refractory ALCL patients, human; dose not given, PTCL).
`pegcetacoplan` — result for “AP50 alternative pathway haemolytic activity”: “decreased” (human; 1440 mg single dose; reference: baseline).
`amivantamab`: “objective response rate” 40% (clinical trial; human, NSCLC patients; dose not given).
`DRDRPECSTMVKYEQKLPSLGKYALKRAIKIKFGRK` gave an MIC of 12 µM (Escherichia coli; peptide, DH5α).
`ifinatamab deruxtecan` — result for “objective response rate”: 40% (patients with advanced solid tumours; dose not given, sqNSCLC cohort).
`hydroxysafflor yellow A` has an effective dose of 6 mg/kg (anti-inflammatory effect; lung injury, acute, LPS-induced mouse; intravenous).
